{"data": "Results pooled from the literature", "note": "Lines come from different studies, so protocols differ. Numbers after ± are the reported error."}
{"SMILES": "C[C@H](NC(=O)[C@@H]1CCCN1C(=O)[C@H](Cc1ccc(O)cc1)NC(=O)CNC(=O)[C@H](CO)NC(=O)[C@H](Cc1ccccc1)NC(=O)[C@@H](N)[C@@H](C)O)C(=O)N[C@@H](Cc1ccccc1)C(=O)O", "target": "mu opioid receptor, rat", "assay": "ion current, agonist, whole-cell patch clamp", "test system": "Sprague Dawley rat, supraoptic nucleus neurons, brain slice", "conditions": "100 nM, after CTOP washout", "measurement": "outward current", "result": "31 ± 8.3 pA"}
{"SMILES": "CC[C@H](C)[C@@H]1NC(=O)[C@H](Cc2ccc(O)cc2)NC(=O)[C@@H](N)CSSC[C@@H](C(=O)N2CCC[C@H]2C(=O)N2CCC[C@H]2C(=O)NCC(N)=O)NC(=O)[C@H](CC(N)=O)NC(=O)[C@H](CCC(N)=O)NC1=O", "target": "oxytocin receptor (titi monkey)", "assay": "Ca2+ mobilisation, agonist", "test system": "CHO cells", "measurement": "Emax", "result": "2780 RFU"}
{"SMILES": "CCCCCCCC(=O)N[C@@H](CCCCNS(=O)(=O)c1cccc2c(N(C)C)cccc12)C(=O)N[C@H](C(=O)N[C@@H](CCN)C(=O)N[C@H]1CCNC(=O)[C@H]([C@@H](C)O)NC(=O)[C@H](CCN)NC(=O)[C@H](CCN)NC(=O)[C@H](CC(C)C)NC(=O)[C@@H](Cc2ccccc2)NC(=O)[C@H](CCN)NC1=O)[C@@H](C)O", "target": "LPS, Escherichia coli", "assay": "ITC", "conditions": "pH 7.0, 37 °C", "measurement": "ΔH, second site", "result": "-10 ± 2.7 kcal/mol"}
{"SMILES": "CCO[C@H]1[C@H](O)[C@@H](N)[C@@H](O[C@H]2[C@H](O[C@@H]3O[C@H](CO)[C@@H](O[C@H]4O[C@@H](CN)[C@@H](O)[C@H](O)[C@H]4N)[C@H]3O)[C@@H](O)[C@H](N)C[C@@H]2N)O[C@@H]1CO", "target": "Mycobacterium smegmatis ribosome wild type", "assay": "translation, cell-free luciferase synthesis", "measurement": "IC50", "result": "0.08 ± 0.03 µg/mL"}
{"SMILES": "COc1ccc2ccc3c(c2c1)C=[N+]1C2CCCCC2[N+]2=Cc4ccc(OCCN5CCCCC5)cc4[O][Au-]21[O]3.F[P-](F)(F)(F)(F)F (stereo not drawn)", "target": "Klebsiella pneumoniae glutathione reductase", "assay": "inhibitor", "test system": "carbapenem-resistant", "conditions": "together with: GSSG and NADPH", "measurement": "IC50", "result": "5.39 µM"}
{"SMILES": "CCCn1nnc2c(NCc3ccc(C)s3)nc(N[C@H](CC)CO)nc21", "target": "Cav2.1 calcium channel", "assay": "tail current integral, whole-cell patch clamp", "test system": "HEK293 transfected with Cav2.1", "measurement": "EC50", "result": "7.11 µM"}
{"SMILES": "CC(C)C[C@@H]1NC(=O)[C@H](Cc2c[nH]c3ccccc23)NC(=O)[C@H](CCCNC(=N)N)NC(=O)[C@H](CCCCN)NC(=O)[C@@H]2CCCN2C(=O)[C@H](Cc2ccc(O)cc2)NC(=O)[C@H](CCCNC(=N)N)NC(=O)[C@H](CC(C)C)NC(=O)[C@H](Cc2ccc(O)cc2)NC(=O)[C@H](CCCNC(=N)N)NC1=O", "target": "delta-opioid receptor", "assay": "DADLE-mediated adenylyl cyclase inhibition", "test system": "NG108-15 membranes", "conditions": "concentration not given, together with: forskolin plus DADLE", "measurement": "inhibition of adenylyl cyclase", "result": "no effect"}
{"SMILES": "COC[C@@H](NC(C)=O)C(=O)NCc1ccc(OCc2cccc(OC(F)(F)F)c2)cc1", "target": "voltage-gated sodium channel", "assay": "whole-cell patch clamp", "test system": "rat embryonic cortical neurons", "conditions": "10 µM, at -50 mV", "measurement": "fraction of inactivated channels", "result": "0.92 ± 0.09"}
{"SMILES": "Cc1cn(C2CCC(OC(C(=O)O)P(=O)(O)O)C2)c(=O)[nH]c1=O (racemic)", "target": "HIV-1 reverse transcriptase M184V/E138K", "assay": "enzyme activity, inhibitor", "conditions": "together with: poly(rA)·dT, [3H]dTTP", "how to read": "relative to: mutant over wild type", "measurement": "fold resistance", "result": "3 fold"}
{"SMILES": "CO[C@H]1[C@H](O)[C@@H](N)[C@@H](O[C@H]2[C@H](O[C@@H]3O[C@H](CO)[C@@H](O[C@H]4O[C@@H](CN)[C@@H](O)[C@H](O)[C@H]4N)[C@H]3O)[C@@H](O)[C@H](N)C[C@@H]2N)O[C@@H]1CO", "target": "ribosome with human cytosolic A site", "assay": "luciferase translation, cell-free translation", "measurement": "IC50", "result": "128 ± 27.6 µg/mL"}
{"SMILES": "C(#C[P+](c1ccccc1)(c1ccccc1)c1ccccc1)c1ccccc1", "target": "HSP70 human", "assay": "pull-down", "test system": "H1299", "conditions": "1 h pretreatment, 8-fold excess, together with: 20 µM B-PES 5 h", "measurement": "HSP70 bound to B-PES", "result": "decreased"}
{"SMILES": "NC[C@@H]1O[C@H](O[C@H]2[C@@H](O)[C@H](O[C@@H]3[C@@H](O)[C@H](N)C[C@H](N)[C@H]3O[C@H]3O[C@H](CO)[C@@H](OCCCO)[C@H](O)[C@H]3N)O[C@@H]2CO)[C@H](N)[C@@H](O)[C@@H]1O", "target": "ribosome with human cytosolic A site", "assay": "luciferase translation, cell-free translation", "measurement": "IC50", "result": "> 700 µg/mL"}
{"SMILES": "CCCCCCCCC(=O)NCc1ccc(O)c(OC)c1", "target": "mAb 5-3H1", "assay": "antibody binding, indirect competitive ELISA", "conditions": "together with: coating antigen 2-OVA", "measurement": "IC50", "result": "0.0083 µg/mL"}
{"SMILES": "NC[C@@H]1O[C@H](O[C@H]2[C@@H](O)[C@H](O[C@@H]3[C@@H](O)[C@H](N)C[C@H](N)[C@H]3O[C@H]3O[C@H](CO)[C@@H](OCC(O)CO)[C@H](O)[C@H]3N)O[C@@H]2CO)[C@H](N)[C@@H](O)[C@@H]1O (stereo partly drawn)", "target": "Mycobacterium smegmatis ribosome wild type", "assay": "translation, cell-free luciferase synthesis", "measurement": "IC50", "result": "0.03 ± 0.01 µg/mL"}
{"SMILES": "C=CCn1cnc2c(NCc3ccc(C)s3)nc(N[C@H](CC)CO)nc21", "target": "Cav2.1 calcium channel", "assay": "tail current integral, whole-cell patch clamp", "test system": "HEK293 transfected with Cav2.1", "measurement": "EC50", "result": "7.04 µM"}
{"SMILES": "C=CCO[C@H]1[C@H](O)[C@@H](N)[C@@H](O[C@H]2[C@H](O[C@@H]3O[C@H](CO)[C@@H](O[C@H]4O[C@@H](CN)[C@@H](O)[C@H](O)[C@H]4N)[C@H]3O)[C@@H](O)[C@H](N)C[C@@H]2N)O[C@@H]1CO", "target": "ribosome with human cytosolic A site", "assay": "luciferase translation, cell-free translation", "measurement": "IC50", "result": "125 ± 3.07 µg/mL"}
{"SMILES": "CC[C@@H]1CN2CCc3c([nH]c4cccc(OC)c34)[C@@H]2C[C@@H]1/C(=C\\OC)C(=O)OC", "target": "anti-compound rabbit antibody", "assay": "competitive indirect ELISA", "conditions": "concentration not given", "how to read": "relative to: compound IC50", "measurement": "cross-reactivity", "result": "100%"}
{"SMILES": "CCCO[C@H]1[C@H](O)[C@@H](N)[C@@H](O[C@H]2[C@H](O[C@@H]3O[C@H](CO)[C@@H](O[C@H]4O[C@@H](CN)[C@@H](O)[C@H](O)[C@H]4N)[C@H]3O)[C@@H](O)[C@H](N)C[C@@H]2N)O[C@@H]1CO", "target": "ribosome with human cytosolic A site", "assay": "luciferase translation, cell-free translation", "measurement": "IC50", "result": "166 ± 28.3 µg/mL"}
{"SMILES": "C[C@]12CC[C@H](O)CC1CCC1C2[C@H](O)C(=O)[C@]2(C)[C@@H](c3ccc(=O)oc3)CC[C@]12O (stereo partly drawn)", "target": "mixed recombinant human SULTs", "assay": "sulfation, substrate", "measurement": "Vmax", "result": "0.63 ± 0.025 nmol/min/mg"}
{"SMILES": "COCOC[C@H]1O[C@H](O[C@H]2[C@H](O[C@@H]3O[C@H](CO)[C@@H](O[C@H]4O[C@@H](CN)[C@@H](O)[C@H](O)[C@H]4N)[C@H]3O)[C@@H](O)[C@H](N)C[C@@H]2N)[C@H](N)[C@@H](O)[C@@H]1O", "target": "ribosome with human cytosolic A site", "assay": "luciferase translation, cell-free translation", "measurement": "IC50", "result": "171 ± 22.5 µg/mL"}
{"SMILES": "COC[C@@H](NC(C)=O)C(=O)NCc1ccc(OCc2ccccc2)cc1", "target": "voltage-gated sodium channel", "assay": "whole-cell patch clamp", "test system": "rat embryonic cortical neurons", "conditions": "10 µM, at -50 mV", "measurement": "fraction of inactivated channels", "result": "0.63 ± 0.13"}
